Assay results pooled from the literature.
Parts stem from different laboratories: compare values within a part only. Positions count from the first letter of the parent shown.

Study 1
Target: RING finger protein unkempt homolog, zinc fingers 1-6, GST-SBP tag (UNK, Homo sapiens, UniProt Q9C0B0, residues 30-357)
Sequence of UniProt Q9C0B0 (30-357, looked up): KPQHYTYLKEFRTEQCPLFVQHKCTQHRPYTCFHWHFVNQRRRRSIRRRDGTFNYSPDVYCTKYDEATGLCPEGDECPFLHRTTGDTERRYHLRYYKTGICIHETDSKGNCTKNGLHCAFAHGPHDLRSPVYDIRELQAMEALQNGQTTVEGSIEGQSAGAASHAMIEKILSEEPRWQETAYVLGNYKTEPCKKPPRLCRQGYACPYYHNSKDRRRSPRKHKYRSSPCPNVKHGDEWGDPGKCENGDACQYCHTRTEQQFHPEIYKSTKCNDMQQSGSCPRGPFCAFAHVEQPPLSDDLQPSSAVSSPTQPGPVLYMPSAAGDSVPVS
Method: RNA Bind-n-Seq
Molecule type: RNA
Medium: in vitro
Tested at: not given
Notes: RNA with constant flanks, human-mouse chimeric sites, ends assumed
Reference: input RNA pool
Reading: higher = stronger binding
Endpoint: bound/input enrichment
Shared flanks, not repeated: GGGAGUUCUACAGUCCGACGAUC … CAACAGAGGAUUGAGCAUCA
CUGUGCGGGUGACUGUCCUGGAGUGGCUGGAGUUCCCGCCGGAGCGCGGCCAGACUAAUUUUAGAAAAUGCCAAGUAGGAAGUUUGUUGAGGGUGAAGUGGUCAGAGGUCGAUGGCCUGG: 2.29 ratio
AGCACAACCCCAGCAAAGCUCAGGAACCCUUGCACAAGUGAACAAAACUGCACCAGCCCAUUUAGCUACAAAAAUGUGCUUAGUCUUACUGACAGAGGAGAGUUUUUCAAUGAACUUGUU: 1.45 ratio
GGGACUGAUUCAUUCCAAGGACAGGCAACCCCAUUUGAUGCCUGGACUGAUGACAGUAUGGAAGGGCCUAGUCAAAAUGUUGAAGCUGAGUCAAUUCAGGAUGCCAUGAGUAUGGAAGAG: 0.455 ratio
AUGGAGAAGGAUUCUCUGCCUCGCUUUGUGCGCUCUGAAUUUUAUAAGGAGUUAAUCAAGUAGUCAUCUGGUCAGGCUUCCAAAAGUUGCCCUGUGAGUUGAGUUACAUCCUUUGUAGCA: 0.184 ratio
CGCUGGCCCAAGCUGAUGGACUCUGAUGGCCUCCAUCUCUCAGGCACGUGUGCCUUCUCUUAGUUAUUGUUUUCGGGAUGUUAUGAAUCUCAGUACUGUUUGACAGAAGCACCAGCUUUG: 6.54 ratio
GGGACUGAUUCAUCCCAAGGACAGGCCGCCCAGUCUGAUGCCUGGACUGAUGACAGUAUGGAAGGGCCUAGUCAAAAUGUUGAAGCUGAGUCAAUUCAGGAUGCCAUGCAUAUGGCAGAG: 0.1 ratio
GUACUGCAGCAGCAGGGCAAGCUGCAGGAAGCUCUGAUGCAUUAUAAGGAGGCUAUUCGAAUCAGUCCUACCUUUGCUGAUGCCUACUCUAAUAUGGGAAACACUCUAAAGGAGAUGCAG: 0.221 ratio
UCUGAGGUACCACUGAAGAGACCUUAAAAGAAUCAUUUGAGGGCUCUCGUUCGGGCAGAAUAGUCACUGAUCGGGAAACUGGUUCUUCCAAAGGGUUUGGUUUUGUAGACUUUAAUAGUG: 0.78 ratio
GUGUCCUUUCAACUUAAUAAAUCACUGAGGCAUCUCUACUGUUCUGUGAGCAUCAGGACUGUAGCGCUGUGUCACCACAUGAGAGUUGUUAAGCAGCCUUUCUGUGGAGGGUGGGAAUGA: 0.135 ratio
ACUCAGAGAUCCACCUCCCAAAGUGCUGGGAGUAAAGGUGUGGCCACUCAAUUCUCCUUGAUGGAUAUAUAUUUUUUUUAAUAUGAAUCUUCCUGUUCGUCCAGGGAGCAAGAACGGGUU: 0.365 ratio
AAAGAGAAACUAAAGCAACUAAUAGAGAAGAGGAUUGGCAAAGAGAAUUUCAUAGAGAAACUAGGAUUUAUUAGCAAAACAUGAGUUGUAUUCCAGACGUCUCAGAAACCCCAGCCAAAC: 23.5 ratio

Study 2
Target: Sal-like protein 4, full length isoform A (SALL4, Homo sapiens, UniProt Q9UJQ4, residues 1-1053)
Sequence of UniProt Q9UJQ4 (whole entry, looked up): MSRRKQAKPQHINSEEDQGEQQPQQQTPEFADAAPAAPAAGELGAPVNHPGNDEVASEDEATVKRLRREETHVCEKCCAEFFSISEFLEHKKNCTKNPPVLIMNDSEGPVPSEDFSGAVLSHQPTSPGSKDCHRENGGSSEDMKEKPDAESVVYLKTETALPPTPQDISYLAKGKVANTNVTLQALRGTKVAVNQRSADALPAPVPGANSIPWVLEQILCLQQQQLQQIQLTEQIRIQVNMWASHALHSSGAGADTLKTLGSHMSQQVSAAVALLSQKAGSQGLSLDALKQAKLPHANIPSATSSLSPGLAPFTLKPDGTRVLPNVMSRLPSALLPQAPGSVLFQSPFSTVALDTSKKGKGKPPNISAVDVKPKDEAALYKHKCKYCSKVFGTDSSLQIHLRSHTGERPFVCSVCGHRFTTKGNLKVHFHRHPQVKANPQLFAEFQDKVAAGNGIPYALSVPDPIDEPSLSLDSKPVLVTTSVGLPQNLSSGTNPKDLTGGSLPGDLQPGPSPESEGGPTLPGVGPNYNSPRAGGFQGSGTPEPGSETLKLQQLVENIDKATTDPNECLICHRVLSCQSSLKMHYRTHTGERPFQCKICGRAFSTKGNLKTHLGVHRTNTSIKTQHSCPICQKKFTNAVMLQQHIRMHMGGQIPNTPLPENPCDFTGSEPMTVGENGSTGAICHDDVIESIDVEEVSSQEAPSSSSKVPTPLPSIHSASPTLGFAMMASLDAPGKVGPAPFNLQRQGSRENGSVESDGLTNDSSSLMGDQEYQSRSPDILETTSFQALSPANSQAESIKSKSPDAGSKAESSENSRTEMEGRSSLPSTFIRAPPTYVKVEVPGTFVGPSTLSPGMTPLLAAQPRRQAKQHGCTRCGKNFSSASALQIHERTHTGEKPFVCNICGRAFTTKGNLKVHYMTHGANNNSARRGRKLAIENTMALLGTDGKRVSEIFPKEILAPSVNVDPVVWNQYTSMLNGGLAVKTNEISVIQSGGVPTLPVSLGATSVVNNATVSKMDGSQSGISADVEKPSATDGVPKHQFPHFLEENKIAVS
Method: universal PBM
Molecule type: double-stranded DNA, one strand shown
Medium: in vitro
Tested at: 600 nM
Notes: 8-mer, flanks averaged, mean of replicates
Reading: higher = stronger binding
Endpoint: E-score
CTGTATGC: 0.0422
CGGTCAGC: -0.211
ATCGTAAG: 0.0879
CTAAGTGC: -0.0673
CCAGCTGG: -0.337
GAAGGGTC: -0.265
AGGGTGGG: -0.199
ATTCTACA: 0.15
CCACATTC: -0.011
CGGAATTA: 0.167
GACCCACC: -0.262
ATCGATTC: -0.00349
CAGGTTCG: -0.0822
ACTGGATG: -0.0938
AGTTACGC: -0.0515
CTGACCCC: -0.369
CACTAGTC: -0.184
AAATATCA: 0.354
ACGCCGCT: -0.327
GGTAGGGA: -0.172
ATAACGAA: 0.32
CAGCTGTA: -0.172
AAACAAGC: 0.0336
ATCTTGTA: 0.163
ACGCAAGA: -0.0419

Study 3
Target: Interferon regulatory factor 5, full length, phosphomimetic (IRF5, Homo sapiens, UniProt Q13568-2, residues 1-514, S451D/S453D/S456D/S462D)
Method: protein-binding microarray
Molecule type: double-stranded DNA, one strand shown
Medium: in vitro
Tested at: 940 nM top
Notes: 60-bp whole probe
Together with: salmon DNA 0.4 mg/ml
Reference: random background probes
Reading: higher = stronger binding
Endpoint: fitted relative affinity
Shared flanks, not repeated: GCCTAGCAC … GTCTTGATTCGCTTGACGCTGCTG
TTAGAACTGGGGGTTCGATTAGTGCTA: 0.942 z-score
GATGGACTGGGGTATCGGGACGTGCTA: 0.572 z-score
AGAGAGAGTGAGGAACAACAGTGCTAG: -0.094 z-score
GACGGTATTGGGTTTCGGGACGTGCTA: 3.2 z-score
TTAGGTTTCCTTGTCCTTTAGTGCTAG: 1.6 z-score
TTTCATTTTTTTTTTCATCAGTGCTAG: 6.55 z-score
TTAGGACTGGAGACTGGGTTAGTGCTA: -0.388 z-score
TTAGGAATCGGGTATCGGTTAGTGCTA: 3.77 z-score
TTAGAACTGAGTTTCCATTAGTGCTAG: 0.337 z-score
TCACTTCTGGACTGTTTGACTGTGCTA: 0.619 z-score
TTAGGACGGGACACTGGGTTAGTGCTA: -0.468 z-score
TCTATCTGCAGACTCTCACAGTGCTAG: 0.902 z-score
TTGTCTCTGTCCCTGTTTCTGTGCTAG: 3.14 z-score
TCATGTTTTAAATTCTAACTGTGCTAG: 0.405 z-score
GACGGTTTCGGGTCTCGGGACGTGCTA: 9.22 z-score
TCAGTCCTCCTGACTGGGACTGTGCTA: -0.321 z-score
CAGCATGCCTGTCCCTGGGTGTGCTAG: -0.343 z-score
GACGGTATAGACTTTCGGGACGTGCTA: 0.623 z-score
ATAGGTTCCCTTTTCCTTTAGTGCTAG: 0.775 z-score
TTAGGTTTCGGTCTGGGTTAGTGCTAG: 15.3 z-score
TTAGGTTTCCTTATCCTTAAGTGCTAG: 2.46 z-score
TTAGATATCAGTTACGATTAGTGCTAG: 0.157 z-score
TTTACTTTCTTTTTTTCTTTGTGCTAG: 2.94 z-score
GACAATTTCGGGACTGGAGACGTGCTA: 0.404 z-score

Study 4
Target: Histone acetyltransferase KAT6A, both winged helices, GST fusion (KAT6A, Homo sapiens, UniProt Q92794, residues 1-181)
Method: protein binding microarray
Molecule type: double-stranded DNA, one strand shown
Medium: in vitro
Tested at: not given
Notes: 8-mer, flanks averaged, mean of 2 arrays, mostly near background
Reference: not given
Reading: higher = stronger binding
Endpoint: E-score
Target sequence (chain): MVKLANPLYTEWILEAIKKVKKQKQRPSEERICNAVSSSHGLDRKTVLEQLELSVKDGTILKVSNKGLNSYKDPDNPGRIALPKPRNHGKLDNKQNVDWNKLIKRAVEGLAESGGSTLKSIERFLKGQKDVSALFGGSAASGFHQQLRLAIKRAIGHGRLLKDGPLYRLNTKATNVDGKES
CCGTATTA: 0.212
CCCTTGAG: -0.134
CCGCGTAA: 0.322
TAGAACCA: -0.234
AGTAGTTA: -0.0647
AATGATAA: -0.0507
CGACTATA: -0.0777
GCCGGCAA: 0.309
AGCGCAGC: 0.227
CGGTAAAA: 0.162
CTTGGGCA: -0.0208
TCCGCCGA: 0.257
GGGCACTA: 0.0471
CCGGTGTA: 0.19
TAGATTGA: 0.0928
AACCTAAT: -0.037
GCTGAGAA: -0.264
GCCCGGCC: 0.233
CCTTCTGA: -0.244
AGAGCATC: -0.195
AGCGACTA: -0.13
ACTACGCA: 0.0449
AAGATCCG: 0.0823
AGTCACAT: -0.0434
TAAAACCA: -0.0891

Study 5
Target: ABI1, truncated, D143A, DHFR fusion (Arabidopsis thaliana)
Method: DHFR PCA, deep sequencing
Medium: yeast
Notes: methotrexate growth selection, single substitutions
Together with: (+)-ABA 0.032 µM
Reference: wild-type fitted maximum
Reading: higher = stronger binding
Endpoint: relative binding score
Starting sequence: PYL1, truncated, DHFR fusion (Arabidopsis thaliana); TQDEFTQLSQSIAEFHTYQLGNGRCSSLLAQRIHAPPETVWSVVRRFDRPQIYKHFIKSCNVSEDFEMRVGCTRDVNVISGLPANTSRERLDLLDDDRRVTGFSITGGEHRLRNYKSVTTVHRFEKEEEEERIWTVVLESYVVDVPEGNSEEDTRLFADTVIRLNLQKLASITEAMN; partner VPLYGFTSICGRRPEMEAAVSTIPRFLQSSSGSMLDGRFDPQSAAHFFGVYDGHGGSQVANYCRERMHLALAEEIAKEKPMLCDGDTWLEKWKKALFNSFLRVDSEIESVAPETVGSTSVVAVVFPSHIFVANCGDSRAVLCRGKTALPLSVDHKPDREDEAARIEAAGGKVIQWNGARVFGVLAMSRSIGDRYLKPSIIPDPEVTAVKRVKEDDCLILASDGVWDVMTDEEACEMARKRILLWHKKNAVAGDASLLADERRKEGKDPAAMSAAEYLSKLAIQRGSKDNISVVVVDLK
E139D: -7.32%
R69N: 7.47%
R113Y: 1.38%
I133L: 23.7%
M176Q: 7.14%
Y115D: 3.63%
E109A: 1.94%
L82G: 44.4%
S11F: 11.6%
Q31Y: -2.88%
K58D: -8.98%
E38T: 4.42%
R88W: -3.06%
F56A: -3.46%
V145I: 40.2%

Study 6
Target: Prothrombin, mature alpha-thrombin (F2, Homo sapiens, UniProt P00734)
Method: aptamer microarray, sandwich
Molecule type: DNA with 2'F-ANA
Medium: in vitro
Tested at: 200 nM
Notes: whole 15-mer aptamer, many near background
Together with: Cy3 exosite-II aptamer, 400 nM
Reading: higher = stronger binding
Endpoint: mean fluorescence intensity
Oligonucleotide: GGTTGGTGTGGTTGG
2'F-ANA at 3 5 6 8 9 13: 88.7 a.u.
2'F-ANA at 1 3 4 6 7 10 11 12 13 14 15: 56.6 a.u.
2'F-ANA at 1 4 5 7 9 11 12 13 14 15: 76.7 a.u.
2'F-ANA at 4 6 7 8 9 13 14: 180 a.u.
2'F-ANA at 1 2 8 10 13: 81.9 a.u.
2'F-ANA at 1 3 4 5 6 8 10 12 14 15: 61.9 a.u.
2'F-ANA at 2 3 4 6 7 9 11 12 15: 586 a.u.
2'F-ANA at 1 2 4 5 6 7 8 11 13 15: 259 a.u.
2'F-ANA at 2 3 6 8 11 12 15: 890 a.u.
2'F-ANA at 1 3 8 13 14 15: 87.5 a.u.
2'F-ANA at 1 5 7 11 12 13: 115 a.u.
2'F-ANA at 1 4 5 7 11 13 15: 78 a.u.
2'F-ANA at 5 6 8 9 12: 170 a.u.
2'F-ANA at 3 4 5 6 8 11 13 14: 47.3 a.u.
2'F-ANA at 2 8 11 13 14 15: 124 a.u.
2'F-ANA at 2 8 9 12: 775 a.u.
2'F-ANA at 2 3 8 9 10 14 15: 297 a.u.
